Published values gathered from unrelated publications.
Each line is one published result; not all experiments were run side by side. “And” joins repeats or separate records; there may be more than shown.
Target: Tyrosine-protein kinase Srms (SRMS, Homo sapiens, UniProt Q9H3Y6)
Chain of UniProt Q9H3Y6 (whole entry, looked up): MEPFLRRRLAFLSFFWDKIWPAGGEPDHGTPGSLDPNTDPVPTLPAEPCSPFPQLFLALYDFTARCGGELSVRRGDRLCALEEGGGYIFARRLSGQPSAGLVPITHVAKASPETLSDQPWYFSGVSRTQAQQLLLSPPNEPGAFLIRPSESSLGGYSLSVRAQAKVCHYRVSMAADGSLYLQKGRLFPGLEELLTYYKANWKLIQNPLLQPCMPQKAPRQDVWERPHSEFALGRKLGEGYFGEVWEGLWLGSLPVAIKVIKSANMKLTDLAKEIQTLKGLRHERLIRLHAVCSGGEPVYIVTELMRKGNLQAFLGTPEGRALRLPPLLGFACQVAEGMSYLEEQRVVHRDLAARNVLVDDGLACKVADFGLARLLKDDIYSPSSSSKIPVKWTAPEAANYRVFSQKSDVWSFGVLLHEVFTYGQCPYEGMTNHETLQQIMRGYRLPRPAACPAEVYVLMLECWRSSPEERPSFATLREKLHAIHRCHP

CN1CCN(Cc2ccc(-c3ccc(CO[C@H]4CCC[C@@H]4NC(=O)c4cc(-c5cnn(C)c5)cnc4N)cc3)cc2)CC1 — inhibition (enzyme activity, inhibitor; 0.1 µM): 11%
CCN1CCN(Cc2ccc(C(=O)Nc3ccc(C)c(NCc4cnc5[nH]ccc5c4OC)c3)cc2C(F)(F)F)CC1 — remaining binding (binding, competition with immobilised ligand; 1 µM): 30%
NC(=O)[C@@H](O)C[C@H]1CCc2sc3ncnc(O[C@H]4CC[C@H](N5CCOCC5)CC4)c3c21 — inhibition (enzyme activity, inhibitor; 10 µM): 17%
CNC(=O)C1CCN(c2cc(C)c(F)cc2NC(=O)c2ccc(-c3cc(O)ccc3C)c(C)c2)CC1 — remaining binding (binding, competition with immobilised ligand; 1 µM): 78%
CNC1C[S+]2CC[S+]3CC[S+](C1)[Ru-4]321([N]=C=S)[n]2c3ccc(OC)cc3c3c4c(c5cc(F)c[n+]1c5c32)C(=O)NC4=O (centres unmarked) — remaining binding (KinomeScan; 0.1 µM; baseline: untreated): 94%
Cc1ccc(C(=O)Nc2ccc(CN3CCN(C)CC3)c(C(F)(F)F)c2)cc1C#Cc1cnc2cccnn12 — Hill slope (target engagement, NanoBRET; human cells): 1.64
C=CC(=O)N1CCc2ccc(-n3c(=O)ccc4cnc5ccc(-c6cnn(C)c6)cc5c43)cc21 — remaining binding (KINOMEscan; 1 µM; baseline: DMSO control): 95%
C=CC(=O)Nc1cccc(-c2cnc3[nH]cc(C(=O)NC(C)(C)C)c3n2)c1 — inhibition (kinase activity; 0.1 µM): -2% and -3%
C=CC(=O)N1CCCC(n2c(=O)c3ncccc3n(Cc3ccc(Oc4ccccc4)cc3)c2=O)C1 (centres unmarked) — remaining binding (cell-free assay, competition with immobilised ligand; 1 µM): 80%
Cc1ccc(-c2c(/C=C(\C#N)C(=O)NC(C)C)n(CCCO)c3ncnc(N)c23)cc1 — remaining binding (cell-free assay, competition with immobilised ligand; 1 µM): 90%
COc1cc(Nc2nc(C)cc(-c3cnn4nc(OC)ccc34)n2)cc(C(F)(F)F)c1 — remaining binding (binding, competition with immobilised ligand; 1 µM): 66%
Nc1ncc2c(n1)-c1c([nH]c3ccc(C4=CCOCC4)cc13)CCC2 — remaining binding (binding, competition with immobilised ligand; 1 µM): 92%
Cc1cnc2nc1Nc1cccc(c1)COC/C=C/COCc1cc(ccc1OCCN1CCOCC1)N2 — remaining binding (binding, competition with immobilised ligand; 0.1 µM): 76%
Cc1cccc(O[C@H]2CCC[C@@H](C(C)CNCc3ccncc3)C2)c1 (relative stereo) — inhibition (enzyme activity, inhibitor; 10 µM): -7%
